Measurements from different studies.
Compare with care: the assays were run in different laboratories. Values joined by “and” are separate records of one study, mostly repeats; a detail may differ. ± gives the spread as reported.
Polyprotein P1234 nsP2 protease domain: Polyprotein P1234, nsP2 protease domain (Chikungunya virus, UniProt Q5XXP4)
Chain of UniProt Q5XXP4 (whole entry, looked up): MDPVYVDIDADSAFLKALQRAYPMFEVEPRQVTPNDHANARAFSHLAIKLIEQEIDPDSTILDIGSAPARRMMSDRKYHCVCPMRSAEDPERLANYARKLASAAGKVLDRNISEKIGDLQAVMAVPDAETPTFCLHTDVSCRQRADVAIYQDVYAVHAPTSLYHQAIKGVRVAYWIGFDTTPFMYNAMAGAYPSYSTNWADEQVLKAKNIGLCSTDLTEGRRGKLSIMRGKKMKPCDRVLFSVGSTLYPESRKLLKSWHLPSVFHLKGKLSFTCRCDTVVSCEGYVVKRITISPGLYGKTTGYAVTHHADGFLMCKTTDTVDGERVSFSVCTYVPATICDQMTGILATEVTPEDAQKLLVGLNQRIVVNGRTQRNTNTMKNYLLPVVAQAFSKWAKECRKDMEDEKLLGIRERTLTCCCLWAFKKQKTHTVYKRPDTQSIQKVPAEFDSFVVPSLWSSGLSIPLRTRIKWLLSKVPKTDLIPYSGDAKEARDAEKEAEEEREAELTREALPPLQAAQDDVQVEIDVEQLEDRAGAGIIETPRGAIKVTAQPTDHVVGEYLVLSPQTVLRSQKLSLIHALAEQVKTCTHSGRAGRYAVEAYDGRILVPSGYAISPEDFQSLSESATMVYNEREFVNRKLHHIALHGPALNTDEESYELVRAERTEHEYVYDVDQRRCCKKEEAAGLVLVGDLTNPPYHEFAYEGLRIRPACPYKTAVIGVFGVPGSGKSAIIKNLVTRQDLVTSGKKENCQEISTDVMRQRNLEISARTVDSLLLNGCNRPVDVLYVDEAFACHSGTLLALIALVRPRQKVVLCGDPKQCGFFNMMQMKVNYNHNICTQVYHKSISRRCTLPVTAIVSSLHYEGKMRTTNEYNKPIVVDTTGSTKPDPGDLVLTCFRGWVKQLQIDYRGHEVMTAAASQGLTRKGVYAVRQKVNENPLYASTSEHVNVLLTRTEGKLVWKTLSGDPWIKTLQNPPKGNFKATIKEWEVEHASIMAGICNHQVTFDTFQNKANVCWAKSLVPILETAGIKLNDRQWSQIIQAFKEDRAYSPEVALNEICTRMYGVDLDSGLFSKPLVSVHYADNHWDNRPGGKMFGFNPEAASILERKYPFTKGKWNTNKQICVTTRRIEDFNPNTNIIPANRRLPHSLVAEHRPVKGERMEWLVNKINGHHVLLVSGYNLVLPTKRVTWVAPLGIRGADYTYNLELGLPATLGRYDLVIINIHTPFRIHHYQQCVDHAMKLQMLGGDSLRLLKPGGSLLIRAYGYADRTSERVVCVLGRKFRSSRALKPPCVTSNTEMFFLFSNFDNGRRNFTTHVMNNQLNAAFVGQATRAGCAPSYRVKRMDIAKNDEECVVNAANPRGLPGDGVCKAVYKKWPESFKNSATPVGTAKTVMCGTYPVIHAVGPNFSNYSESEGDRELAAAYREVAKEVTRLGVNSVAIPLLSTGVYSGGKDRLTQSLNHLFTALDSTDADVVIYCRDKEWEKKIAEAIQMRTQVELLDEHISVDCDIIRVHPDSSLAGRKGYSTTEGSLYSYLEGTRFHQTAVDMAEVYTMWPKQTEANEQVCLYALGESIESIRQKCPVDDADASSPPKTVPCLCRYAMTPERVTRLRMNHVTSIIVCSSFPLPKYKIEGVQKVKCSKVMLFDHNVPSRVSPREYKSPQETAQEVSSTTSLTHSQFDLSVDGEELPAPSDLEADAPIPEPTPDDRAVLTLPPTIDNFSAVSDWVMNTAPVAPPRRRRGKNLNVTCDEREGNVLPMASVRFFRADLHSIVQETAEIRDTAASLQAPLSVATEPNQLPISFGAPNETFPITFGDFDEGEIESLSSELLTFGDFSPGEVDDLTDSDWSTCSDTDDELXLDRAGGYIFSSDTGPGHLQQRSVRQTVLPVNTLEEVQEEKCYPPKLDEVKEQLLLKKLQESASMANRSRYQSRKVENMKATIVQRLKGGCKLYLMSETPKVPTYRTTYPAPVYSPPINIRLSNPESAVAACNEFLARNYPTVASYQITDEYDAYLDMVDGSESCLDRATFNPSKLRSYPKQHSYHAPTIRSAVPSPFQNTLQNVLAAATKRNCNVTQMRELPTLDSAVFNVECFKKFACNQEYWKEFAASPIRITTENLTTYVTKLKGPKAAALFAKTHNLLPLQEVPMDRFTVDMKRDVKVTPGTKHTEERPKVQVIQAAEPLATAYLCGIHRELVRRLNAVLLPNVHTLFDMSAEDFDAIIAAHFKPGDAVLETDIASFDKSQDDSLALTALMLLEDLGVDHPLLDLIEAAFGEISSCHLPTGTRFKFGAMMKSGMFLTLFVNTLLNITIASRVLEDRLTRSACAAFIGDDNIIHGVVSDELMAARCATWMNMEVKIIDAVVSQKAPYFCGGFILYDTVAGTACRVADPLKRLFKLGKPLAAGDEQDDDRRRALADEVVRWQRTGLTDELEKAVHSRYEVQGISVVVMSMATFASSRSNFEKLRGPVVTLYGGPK
nanI: Sialidase (nanI, Clostridium perfringens, UniProt A0A0H2YQR1)
Chain of UniProt P33261 (whole entry, looked up): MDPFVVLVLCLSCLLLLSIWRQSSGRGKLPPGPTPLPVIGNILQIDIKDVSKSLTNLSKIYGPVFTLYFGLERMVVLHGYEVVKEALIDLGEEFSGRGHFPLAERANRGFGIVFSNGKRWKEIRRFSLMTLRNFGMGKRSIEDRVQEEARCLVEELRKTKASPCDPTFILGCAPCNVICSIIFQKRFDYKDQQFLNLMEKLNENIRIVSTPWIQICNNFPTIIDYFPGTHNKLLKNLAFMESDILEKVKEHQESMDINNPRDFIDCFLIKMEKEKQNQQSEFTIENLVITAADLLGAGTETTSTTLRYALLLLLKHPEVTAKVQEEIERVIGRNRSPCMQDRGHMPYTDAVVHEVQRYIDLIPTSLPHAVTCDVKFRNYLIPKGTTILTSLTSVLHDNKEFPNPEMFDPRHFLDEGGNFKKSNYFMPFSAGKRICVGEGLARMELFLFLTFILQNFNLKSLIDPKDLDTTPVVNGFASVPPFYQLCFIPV
Chain of UniProt Q81Y92 (whole entry, looked up): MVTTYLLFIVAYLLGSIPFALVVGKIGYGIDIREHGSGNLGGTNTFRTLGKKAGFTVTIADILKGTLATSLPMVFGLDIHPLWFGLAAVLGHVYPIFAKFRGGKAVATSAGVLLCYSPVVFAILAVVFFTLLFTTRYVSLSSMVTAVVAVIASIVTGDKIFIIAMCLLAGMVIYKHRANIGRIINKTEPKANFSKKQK

SMILES	target or system	test	system	conditions	how to read	endpoint	value
CCC(C(=O)Nc1ccccc1C)n1cccc2nc(SCc3cccc(F)c3)nc1-2 (stereo not shown)	Replicase polyprotein 1ab, papain-like protease (rep, Middle East respiratory syndrome-related coronavirus, UniProt K9N7C7)	enzyme activity, inhibitor	–	–	–	IC50	> 100000 nM
Nc1ncnc2c([C@@H]3N[C@H](CO)[C@@H](O)[C@H]3O)c[nH]c12	Severe acute respiratory syndrome coronavirus	viral replication, inhibitor	Vero 76	0.1 µM	–	inhibition	9.6%
CCC(C(=O)Nc1cc(NC2CCNCC2)ccc1C)n1cc(Cl)cc2nc(SCc3ccc(F)cc3)nc1-2 (stereo not shown)	Replicase polyprotein 1ab, papain-like protease (rep, Middle East respiratory syndrome-related coronavirus, UniProt K9N7C7)	enzyme activity, inhibitor	–	–	–	IC50	> 100000 nM
CCCCCCCC/C=C\CCCCCCCC(=O)C(F)(F)P(=O)(O)O	Glycerol-3-phosphate acyltransferase 3 (plsY3, Bacillus anthracis, UniProt Q81Y92)	inhibitor	–	–	–	IC50	140000 nM
CC[C@H](C)[C@H](NC(=O)[C@H](Cc1c[nH]c2ccccc12)NC(=O)[C@@H](N)C(C)C)C(=O)N[C@@H](CC(N)=O)C(=O)N[C@@H](CC(N)=O)C(=O)N[C@@H](CO)C(=O)N[C@@H](Cc1c[nH]c2ccccc12)C(=O)N[C@@H](CCCCN)C(=O)N[C@@H](Cc1ccccc1)C(=O)O	HLA class I histocompatibility antigen, A alpha chain, allele A*24:02 (Homo sapiens, UniProt P04439)	biochemical	–	–	–	IC50	6.4 nM
CCC(C(=O)Nc1ccccc1C)n1cccc2nc(SCc3ccccc3F)nc1-2 (stereo not shown)	Replicase polyprotein 1ab, papain-like protease (rep, Middle East respiratory syndrome-related coronavirus, UniProt K9N7C7)	enzyme activity, inhibitor	–	–	–	IC50	> 100000 nM
Cn1cnc(Cn2c(=O)[nH]/c(=N\c3cc4cn(C)nc4cc3Cl)n(Cc3cc(F)c(F)cc3F)c2=O)n1	Cytochrome P450 2C19 (CYP2C19, Homo sapiens, UniProt P33261)	inhibitor	human liver microsomes	0 min preincubation, together with: S-mephenytoin 60 µM	–	IC50	> 100000 nM
CC[C@H](C)[C@H](NC(=O)[C@@H](NC(=O)[C@@H](N)CCCNC(=N)N)[C@@H](C)O)C(=O)N[C@@H](CCCCN)C(=O)N[C@H](C(=O)N[C@@H](Cc1ccccc1)C(=O)N[C@H](C(=O)N[C@H](C(=O)N[C@H](C(=O)O)C(C)C)[C@@H](C)O)[C@@H](C)O)C(C)C	HLA class I histocompatibility antigen, B alpha chain (Homo sapiens, UniProt P01889)	binding, competitor	–	–	–	IC50	19300 nM
Cc1cc(NC(=O)Cc2cccs2)no1	Replicase polyprotein 1ab, nsp13 helicase (rep, Severe acute respiratory syndrome coronavirus 2, UniProt P0DTD1)	helicase ATPase activity, inhibitor, Kinase-Glo luminescence	–	–	–	IC50	29000 nM
CC(C)[C@H](N)C(=O)N[C@H](C(=O)N[C@@H](CC(=O)O)C(=O)N[C@H](C(=O)N[C@@H](CC(N)=O)C(=O)N[C@@H](CCCCN)C(=O)N[C@@H](Cc1ccccc1)C(=O)N[C@@H](C)C(=O)N[C@@H](Cc1c[nH]cn1)C(=O)N[C@@H](Cc1ccc(O)cc1)C(=O)O)[C@@H](C)O)[C@@H](C)O	HLA class I histocompatibility antigen, A alpha chain, allele A*01:01 (Homo sapiens, UniProt P04439)	biochemical	–	–	–	IC50	3.4 nM
Cn1cnc(Cn2c(=O)[nH]/c(=N\c3cc4cn(C)nc4cc3Cl)n(Cc3cc(F)c(F)cc3F)c2=O)n1	–	–	human, all renal function groups	oral, 375 mg, treatment-related dry mouth, Mild severity	–	patients with adverse event	3.1%
CCC(CC)O[C@@H]1C=C(C(=O)O)C[C@H](N)[C@H]1NC(C)=O	Neuraminidase (Influenza A virus, UniProt L0MUX9)	enzyme activity, inhibitor	swine influenza A virus, H1N2	–	–	IC50	0.18 ± 0.02 nM
C=CC(=O)N1CCCC1C(C)(C)C(=O)O (stereo not shown)	Polyprotein P1234 nsP2 protease domain	protease activity, inhibitor, FRET	–	90 min, 30 min preincubation	–	IC50	140000 ± 111000 nM
CC[C@H](C)[C@H](NC(=O)[C@@H](NC(=O)[C@H](CC(=O)O)NC(=O)CNC(=O)CNC(=O)[C@H](CCCCN)NC(=O)[C@@H](N)CCCCN)C(C)C)C(=O)N[C@@H](CC(N)=O)C(=O)N[C@@H](Cc1ccc(O)cc1)C(=O)O	HLA class I histocompatibility antigen, A alpha chain, allele A*11:01 (Homo sapiens, UniProt P04439)	biochemical	–	–	–	IC50	1270 nM
C=CC(=O)N1CC[C@H](CC(=O)O)C1	Polyprotein P1234 nsP2 protease domain	protease activity, inhibitor, FRET	–	90 min, 30 min preincubation	–	IC50	130000 ± 68000 nM
CCC(CC)[C@H](NC(C)=O)[C@@H]1[C@H](O)[C@@H](C(=O)O)C[C@H]1N=C(N)N	Neuraminidase (Influenza A virus, UniProt G9HX50)	enzyme activity, inhibitor	swine influenza A virus, H3N2	–	–	IC50	0.14 ± 0.01 nM
C[C@@H](O)[C@H](NC(=O)[C@H](CC(N)=O)NC(=O)[C@H](CC(N)=O)NC(=O)[C@@H](N)Cc1ccccc1)C(=O)N[C@@H](CCCCN)C(=O)N[C@@H](Cc1ccccc1)C(=O)N[C@@H](CC(=O)O)C(=O)N[C@@H](Cc1ccc(O)cc1)C(=O)N[C@@H](Cc1ccc(O)cc1)C(=O)O	HLA class I histocompatibility antigen, A alpha chain, allele A*30:02 (Homo sapiens, UniProt P04439)	biochemical	–	–	–	IC50	1480 nM

SMILES	target or system	test	system	conditions	how to read	endpoint	value
O=C1c2ccccc2C(c2ccccc2F)C(=O)N1O (stereo not shown)	Resolvase OPG149 (OPG149, Vaccinia virus, UniProt Q80HV3)	–	–	–	–	IC50	2600 nM
CC(=O)N[C@H]1C(O)O[C@H](CO)[C@@H](O[C@@H]2O[C@H](CO)[C@H](O)[C@H](O)[C@H]2O)[C@@H]1O (stereo partly shown)	Spike glycoprotein, with ACE2 (Severe acute respiratory syndrome coronavirus 2, UniProt P0DTC2)	binding to human ACE2, inhibitor	SARS-CoV-2	–	–	IC50	23.5 nM
COc1cc(Nc2ncc(F)c(Nc3ccc4c(n3)NC(=O)C(C)(C)O4)n2)cc(OC)c1OC	strychnine-sensitive glycine receptor	binding	–	–	–	IC50	> 10000 nM
CNC(=O)[C@@H](NC(=O)[C@H](CC(C)C)[C@H](O)C(=O)NO)C(C)(C)C	Daboia russelii venom proteases (SVMP)	protease activity, inhibitor	GA population	1 µM, together with: azocasein substrate	baseline: venom alone	remaining activity	83.7% and 82.4% and 80.5%
O=C(N1CCC2(CC1)C[C@H](CN1CCCCS1(=O)=O)CCO2)C1(c2cc(F)cc(F)c2)CCCC1	Polyprotein P1234, nsP2 (Chikungunya virus, UniProt Q8JUX6)	nsP2 ATPase activity, inhibitor, ADP-Glo	–	–	–	IC50	790 nM
CC(=O)N[C@H]1[C@H]([C@H](O)[C@H](O)CO)OC(C(=O)O)=C[C@@H]1N=C(N)N	neuraminidase (Influenza A virus, UniProt A0A088CBR8)	–	–	concentration not given	–	IC50	0.61 nM
CCC(C(=O)Nc1cc(NC2CCNC2)ccc1C)n1cc(F)cc2nc(SCc3ccc(F)cc3)nc1-2 (stereo not shown)	Replicase polyprotein 1ab, papain-like protease (rep, Middle East respiratory syndrome-related coronavirus, UniProt K9N7C7)	enzyme activity, inhibitor	–	–	–	IC50	> 100000 nM
CC[C@H](C)[C@H](NC(=O)[C@H](CCCCN)NC(=O)[C@H](CC(C)C)NC(=O)[C@@H](N)Cc1c[nH]c2ccccc12)C(=O)N[C@@H](CCCCN)C(=O)N[C@@H](CCCNC(=N)N)C(=O)N[C@@H](CC(=O)O)C(=O)N[C@@H](Cc1ccc(O)cc1)C(=O)N[C@@H](CC(C)C)C(=O)O	HLA class I histocompatibility antigen, B alpha chain, allele B*08:01 (Homo sapiens, UniProt P01889)	biochemical	–	–	–	IC50	0.77 nM
CCCCNC(=O)N[C@H]1[C@H]([C@H](O)[C@H](O)CO)OC(C(=O)O)=C[C@@H]1O	nanI	enzyme activity, inhibitor	–	–	–	IC50	240000 nM
CCC(C(=O)Nc1cc(NC2CCOCC2)ccc1C)n1cc(F)cc2nc(SCc3ccc(F)cc3)nc1-2 (stereo not shown)	Replicase polyprotein 1ab, papain-like protease (rep, Severe acute respiratory syndrome-related coronavirus, UniProt P0C6X7)	enzyme activity	–	–	–	IC50	809 ± 52 nM
CC1=C(/C=C/C(C)=C/C=C/C(C)=C/C=C/C=C(C)/C=C/C=C(C)/C=C/C2=C(C)CCCC2(C)C)C(C)(C)CCC1	Spike glycoprotein (Severe acute respiratory syndrome coronavirus 2, UniProt P0DTC2)	binding, BLI	–	–	–	Kd	110000 nM
CCCCCC(=O)N[C@H]1[C@H]([C@H](O)[C@H](O)CO)OC(C(=O)O)=C[C@@H]1O	nanI	enzyme activity, inhibitor	–	–	–	IC50	> 500000 nM
C=CS(=O)(=O)CCN1CC(=O)NCC1c1ccccc1 (stereo not shown)	Polyprotein P1234 nsP2 protease domain	enzyme activity, inhibitor, FRET	–	90 min, 30 min preincubation	–	IC50	1600 ± 200 nM
Cc1ccccc1NC(=O)C(C)n1c(SCc2ccc(F)cc2)nc2cccnc21 (stereo not shown)	Replicase polyprotein 1ab, papain-like protease (rep, Middle East respiratory syndrome-related coronavirus, UniProt K9N7C7)	enzyme activity, inhibitor	–	–	–	IC50	> 100000 nM
CC[C@H](C)[C@H](NC(=O)[C@H](CC(C)C)NC(=O)[C@H](Cc1c[nH]c2ccccc12)NC(=O)[C@H](CCC(N)=O)NC(=O)[C@@H](NC(=O)[C@H](Cc1ccccc1)NC(=O)[C@H](C)NC(=O)[C@H](CCCCNC(=O)COCCOCCNC(=O)COCCOCCNC(=O)CC[C@H](NC(=O)CCCCCCCCCCCCCCCCCCC(=O)O)C(=O)O)NC(=O)[C@H](CCC(N)=O)NC(=O)[C@H](C)NC(=O)[C@@H](NC(=O)[C@H](CCCCN)NC(=O)[C@H](CC(=O)O)NC(=O)[C@H](CC(C)C)NC(=O)C(C)(C)NC(=O)[C@@H](NC(=O)[C@H](CO)NC(=O)[C@H](Cc1ccc(O)cc1)NC(=O)[C@H](CC(=O)O)NC(=O)[C@H](CO)NC(=O)[C@@H](NC(=O)[C@H](Cc1ccccc1)NC(=O)[C@@H](NC(=O)CNC(=O)[C@H](CCC(=O)O)NC(=O)C(C)(C)NC(=O)[C@@H](N)Cc1ccc(O)cc1)[C@@H](C)O)[C@@H](C)O)[C@@H](C)CC)[C@@H](C)CC)C(C)C)C(=O)N[C@@H](C)C(=O)NCC(=O)NCC(=O)N1CCC[C@H]1C(=O)N[C@@H](CO)C(=O)N[C@@H](CO)C(=O)NCC(=O)N[C@@H](C)C(=O)N1CCC[C@H]1C(=O)N1CCC[C@H]1C(=O)N1CCC[C@H]1C(=O)N[C@@H](CO)C(N)=O	–	refers to: blood glucose ≤70 mg/dL	healthy subjects	0.5 mg, multiple ascending dose	–	subjects with hypoglycaemia	33.3%
CCCC(C(=O)Nc1cc(NC2CCNC2)ccc1C)n1cccc2nc(SCc3ccc(F)cc3)nc1-2 (stereo not shown)	Replicase polyprotein 1ab, papain-like protease (rep, Middle East respiratory syndrome-related coronavirus, UniProt K9N7C7)	enzyme activity, inhibitor	–	–	–	IC50	> 100000 nM
C=CS(=O)(=O)CCC(=O)Nc1c(C)nsc1C	Polyprotein P1234 nsP2 protease domain	protease activity, inhibitor, FRET	–	90 min, 30 min preincubation	–	IC50	17000 ± 1000 nM

Some of these lines once more:
SMILES	target or system	test	system	conditions	how to read	endpoint	value
CC[C@H](C)[C@H](NC(=O)[C@@H](NC(=O)[C@@H](N)CCCNC(=N)N)[C@@H](C)O)C(=O)N[C@@H](CCCCN)C(=O)N[C@H](C(=O)N[C@@H](Cc1ccccc1)C(=O)N[C@H](C(=O)N[C@H](C(=O)N[C@H](C(=O)O)C(C)C)[C@@H](C)O)[C@@H](C)O)C(C)C	HLA class I histocompatibility antigen, B alpha chain (Homo sapiens, UniProt P01889)	binding, competitor	–	–	–	IC50	19300 nM
CCC(C(=O)Nc1cc(NC2CCOCC2)ccc1C)n1cc(F)cc2nc(SCc3ccc(F)cc3)nc1-2 (stereo not shown)	Replicase polyprotein 1ab, papain-like protease (rep, Severe acute respiratory syndrome-related coronavirus, UniProt P0C6X7)	enzyme activity	–	–	–	IC50	809 ± 52 nM
O=C1c2ccccc2C(c2ccccc2F)C(=O)N1O (stereo not shown)	Resolvase OPG149 (OPG149, Vaccinia virus, UniProt Q80HV3)	–	–	–	–	IC50	2600 nM
Cc1ccccc1NC(=O)C(C)n1c(SCc2ccc(F)cc2)nc2cccnc21 (stereo not shown)	Replicase polyprotein 1ab, papain-like protease (rep, Middle East respiratory syndrome-related coronavirus, UniProt K9N7C7)	enzyme activity, inhibitor	–	–	–	IC50	> 100000 nM
CC1=C(/C=C/C(C)=C/C=C/C(C)=C/C=C/C=C(C)/C=C/C=C(C)/C=C/C2=C(C)CCCC2(C)C)C(C)(C)CCC1	Spike glycoprotein (Severe acute respiratory syndrome coronavirus 2, UniProt P0DTC2)	binding, BLI	–	–	–	Kd	110000 nM
